Measurements of several laboratories.
Compare with care: the assays were run in different laboratories. Several values in a cell are separate wells, animals, samples, runs or records. In brackets after ≈: the same amount, converted by molar mass.

| Structure (SMILES) | target or system | test | test system | conditions | scale | measurement | value |
| --- | --- | --- | --- | --- | --- | --- | --- |
| Cc1cccc(C)c1N(CC(=O)Nc1ccc(-c2ncon2)cc1)C(=O)C1CCS(=O)(=O)CC1 | human alphaherpesvirus 1 | live-cell GFP imaging | primary human fibroblasts, K26 GFP | – | – | IC50 | 100 nM |
| CN[C@H](CC(C)C)C(=O)N[C@H]1C(=O)N[C@@H](CC(N)=O)C(=O)N[C@H]2C(=O)N[C@H]3C(=O)N[C@H](C(=O)N[C@H](C(=O)O)c4cc(O)cc(O)c4-c4cc3ccc4O)[C@H](O)c3ccc(c(Cl)c3)Oc3cc2cc(c3O[C@@H]2O[C@H](CO)[C@@H](O)[C@H](O)[C@H]2O[C@H]2C[C@](C)(N)[C@H](O)[C@H](C)O2)Oc2ccc(cc2Cl)[C@H]1O | Staphylococcus epidermidis | – | – | – | – | MIC50 | 1 µg/mL (≈ 0.69 µM) |
| Nc1nc(-c2ccccc2)nc2[nH]nc(Nc3ccc(C(F)(F)F)cc3)c12 | coxsackievirus B3 | – | 31-1-93, NMRI mice, CVB3 chronic myocarditis | oral, 100 mg/kg twice daily, day 7, dosed days 3 to 10, score scale 0 to 7 | direction not given | clinical score | 0.9 |
| O=C[C@H](O)[C@@H](O)[C@@H](O)[C@H](O)CO | – | binding, equilibrium dialysis LC-MS | – | 5 µM, thermostabilized A2AR-BRIL construct | baseline: no-protein control, direction not given | z-scored log2 fold change | -1.54 |
| CCCc1nn(C)c2c(=O)[nH]c(-c3cc(S(=O)(=O)N4CCN(C)CC4)ccc3OCC)nc12 | Cryptosporidium parvum | parasite growth, immunofluorescence imaging | HCT-8, Iowa | 8.22 nM | – | inhibition | -27.9% and -33.2% |
| O=C(Nc1ccc([N+](=O)[O-])cc1Cl)c1cc(Cl)ccc1O | human alphaherpesvirus 1 | – | K26 GFP, 3D skin equivalent, air-liquid | – | baseline: CC50 over IC50 | selectivity index | > 90.9 |
| CCn1c(=O)c(-c2cc[nH]n2)cc2c(C)nc(N)nc21 | Coxsackievirus B4 | viral replication, RT-qPCR | HeLa, CVB4-5 | concentration not given, 20 h | – | viral RNA level | decreased |
| CCCCCCc1ccc(Oc2ccccc2C)c(O)c1 | Mycobacterium tuberculosis | – | mouse, rapid infection model, spleen | 50 mg/kg twice daily, SMEDDS formulation | – | CFU reduction | 0.2 log10 CFU |
| COC(=O)[C@@H](CCSC)NCc1cc2ccccc2nc1SC | Pseudomonas aeruginosa | – | – | 8 µg/mL, without pentamidine | baseline: control | growth | 95.7% |
| COc1ccc(-c2nc(N3CCOCC3)c3sc(CN(C)c4ncc(C(=O)NO)cn4)cc3n2)cn1 | human alphaherpesvirus 1 | – | primary human keratinocytes, K26 GFP | – | baseline: CC50 over IC50 | selectivity index | 2.07 |
| Nc1ccn([C@H]2C[C@H](O)[C@@H](COP(=O)(O)OP(=O)(O)OP(=O)(O)O)O2)c(=O)n1 | – | binding, equilibrium dialysis LC-MS | – | 5 µM, thermostabilized A2AR-BRIL construct | baseline: no-protein control, direction not given | z-scored log2 fold change | -0.414 |
